Experimental data pooled from the literature.
Several values in a cell are separate wells, animals, samples, runs or records. ± marks the error that the study gave.
U2AF2: U2AF2 148-342 (Homo sapiens, UniProt P26368)
Sequence of UniProt P26368 (whole entry, looked up): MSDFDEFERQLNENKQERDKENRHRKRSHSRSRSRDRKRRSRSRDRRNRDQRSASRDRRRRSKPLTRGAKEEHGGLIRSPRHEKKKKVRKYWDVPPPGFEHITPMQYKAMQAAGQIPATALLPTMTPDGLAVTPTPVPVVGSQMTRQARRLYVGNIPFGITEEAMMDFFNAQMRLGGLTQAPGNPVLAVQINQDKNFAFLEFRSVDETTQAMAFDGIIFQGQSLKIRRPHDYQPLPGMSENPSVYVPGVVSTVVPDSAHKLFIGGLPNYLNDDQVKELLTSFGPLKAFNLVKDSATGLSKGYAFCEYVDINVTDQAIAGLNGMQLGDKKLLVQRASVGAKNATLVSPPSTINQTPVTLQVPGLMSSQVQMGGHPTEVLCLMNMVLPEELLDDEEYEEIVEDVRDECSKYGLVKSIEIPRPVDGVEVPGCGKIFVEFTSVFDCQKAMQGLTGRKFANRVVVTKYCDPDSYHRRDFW
Sequence of UniProt P13393 (whole entry, looked up): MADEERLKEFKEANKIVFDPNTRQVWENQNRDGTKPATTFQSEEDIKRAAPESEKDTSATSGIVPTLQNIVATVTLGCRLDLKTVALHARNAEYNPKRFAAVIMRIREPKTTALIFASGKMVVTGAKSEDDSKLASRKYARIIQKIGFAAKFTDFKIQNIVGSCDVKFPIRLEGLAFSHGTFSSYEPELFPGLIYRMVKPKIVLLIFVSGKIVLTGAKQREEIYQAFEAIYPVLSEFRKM

Substance = Polymyxin B; test = LC-MS; system = Sprague-Dawley rat, cerebellum; conditions = intracerebroventricular, 0.75 mg/kg, 1 h; measurement = concentration; result = 210 ng/mL and 480 ng/mL and 50 ng/mL and 310 ng/mL and 200 ng/mL
Substance = KRRRC; tested on = HUVEC; test = ICP-OES, item: rhenium; system = peptide; conditions = 24 h; how to read = reference: loaded; measurement = cellular uptake; result = 8.85%
Substance = TGGATCAATCGAGAATTCCTGGTATGGTATAAAGATCAAGTCAATCGGTCC (dsDNA; 5'-amino-C6 primer); tested on = SPT15 full length assumed (Saccharomyces cerevisiae, UniProt P13393); test = array; system = double-stranded DNA, one strand shown; conditions = TBP alone; measurement = Kd; result = 212 ± 159 nM
Substance = insulin; test = LC-MS/MS; system = human serum pool; conditions = low pool, two freeze-thaw cycles, added: C-peptide 1.55 ng/mL; measurement = concentration; result = 0.36 ng/mL
Substance = durvalumab; system = human, plasma; conditions = intravenous, 1500 mg, cycle 4 day 1, geometric mean, added: adavosertib 150 mg twice daily; measurement = Cmax; result = 444000 ng/mL
Substance = EHWSYGLRPG; tested on = HUVEC; test = ICP-OES, item: rhenium; system = peptide; conditions = 24 h; how to read = reference: loaded; measurement = cellular uptake; result = 1.61%
Substance = insulin icodec; system = human, moderate renal impairment, serum; conditions = subcutaneous, 1.5 U/kg single dose; how to read = reference: normal renal function; measurement = AUC(0-inf) increase; result = 24%
Substance = pegcetacoplan; test = item: blood and lymphatic disorders; system = patients with PNH; conditions = dose not given, phase Ib trial; measurement = number of TEAEs; result = 1
Substance = CAUUGUUUU (ssRNA); tested on = U2AF2; test = sequencing of bound RNA; system = RNA; conditions = motif only; measurement = Kd; result = 1930 nM
Substance = Neuropeptide Y; test = RP-HPLC; system = HALO RP-amide column; conditions = 25 µM, acetic acid/acetonitrile, 25 min gradient; measurement = retention time; result = 9.97 min
Substance = CUCUCUUUG (ssRNA); tested on = U2AF2; test = sequencing of bound RNA; system = RNA; conditions = motif only; measurement = Kd; result = 8150 nM
Substance = adrenomedullin; test = RP-HPLC; system = HALO C18 column; conditions = 25 µM, formic acid/acetonitrile, 25 min gradient; measurement = retention time; result = 5.75 min
Substance = insulin degludec; system = human; conditions = subcutaneous, 0.4 IU/kg, 3 FC level, single dose, reference formulation; measurement = AUC0−12; result = 111 ± 19 ng·h/mL

A few entries again:
Substance = insulin icodec; system = human, moderate renal impairment, serum; conditions = subcutaneous, 1.5 U/kg single dose; how to read = reference: normal renal function; measurement = AUC(0-inf) increase; result = 24%
